# Assay results of several laboratories.
# Numbered parts are unrelated; each lists some results of a single study. Positions count from the first letter of the parent shown.

# Study 1 — method: RNA Bind-n-Seq; molecule type: RNA; medium: in vitro; concentration: 365 nM; baseline: no-protein control; reading: higher = stronger binding
# Target: RNA binding protein fox-1 homolog 2, RRM domain, GST-SBP tag (RBFOX2, Homo sapiens, UniProt O43251-10, residues 100-194)
# Setting: natural RNA segment, single round, ends assumed
# Construct (chain): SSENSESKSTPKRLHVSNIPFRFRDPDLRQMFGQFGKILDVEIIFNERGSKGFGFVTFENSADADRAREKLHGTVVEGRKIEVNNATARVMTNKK
Strand,RBNS enrichment (R)
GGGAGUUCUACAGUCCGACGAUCGUAACUUUAUUUAUUUAAAAAAAAGAAACACAAUUAGUUACUGUUAAACUGAUAAAGGGUGUUUAUUUUUACUUUUAGAAUUGGUCCUAUGAAGAAGUAGAAAGUGAGUCUGGAAUUCUCGGGUGCCAA,0.926
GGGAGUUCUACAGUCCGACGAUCCUAGAAUAGCCAGUAUUUAUGUUUUUUAUAAAACUGUGCAAUACAAAUUAUGCAAUCACCAUAACUUUGUAACUCCUGAGUGUCCUAAGGGAGUACACAUCUUUGAAGCUUGGAAUUCUCGGGUGCCAA,0.427
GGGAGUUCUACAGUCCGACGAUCGACCCACGCUCUGCCGAGAUACUGGACGGGAGGAAGGAUUUUUCCUAGACUGCGGAUUGGCGUGACAAAGCAAUGGCUGUGUCAGCUGGGCCUUCAUCCAGGAACAGACCUGGAAUUCUCGGGUGCCAA,0.337
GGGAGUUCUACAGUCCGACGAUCUUUAAGUAAAAAUAUGCUGUUUUAAUAUUUAAUUUAGUAGAAUUAACAAAAACUUUUUAAUAGUCAAACUGAAUUACCUUGUUUUAUAAAUGUUAAAUUGUUUAUAUUUAUGGAAUUCUCGGGUGCCAA,1.53
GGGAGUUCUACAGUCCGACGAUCUAGGCAAACAGGGGAAAGCUUAGAGGUCCUUCUAUAUGUGUUAAUAAGCUGUUUCUAAGUGUUUAAAUUUGAAAAGCAUCAUGUUCUCAUGAUUUAUGGGAAUGAAGCAAUGGAAUUCUCGGGUGCCAA,0.717
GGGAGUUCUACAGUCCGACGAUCAACUUUCUGGGGUUUGACUGUUACACUAGACAUGGAUUUCUAAGCUUUAAGUGUGGUUGGUUUAGGAGAGUUUUCCUUGGGAGAGCUAGCCCUGAGGUAGUCAGGGCUAGUGGAAUUCUCGGGUGCCAA,0.674
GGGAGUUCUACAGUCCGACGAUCACCUUCCCCUUGGCGAUCGCUCGGGUUUGUGUUAAGUUAAUCUGUAUGUCCUGUCUGCCAGCGUUCCCUGUACUAUAGGCCUGUGUAUAGUGUAGGGCAGAGCGUUGACCUGGAAUUCUCGGGUGCCAA,1.22
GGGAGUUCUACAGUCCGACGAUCUUCGGGAUCUGCUCCUUCUGUCCCAGGAGGUCUACUGGAGUUAGUUGUGUGGUCACCAAGAGGACUGAGGACACAGUAGCCCUGAGCCAAGUUGGGCUCAUCUUCCAGGGUGGAAUUCUCGGGUGCCAA,0.385
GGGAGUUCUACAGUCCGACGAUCAAGGGGGUCAUAGAAACCAGGGCUGAUGGGCACCCCCCAGCCCCUGGGAGCUCUGCUCAUGACCGCUCACAGGGUACCGAGUCUUUGCCUUUUGUGUGUGCGCAUGCUGCUGGAAUUCUCGGGUGCCAA,3.44
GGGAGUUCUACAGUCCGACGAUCCAGAGUGUGCAAUGUUGAAAUGGAGCAGUAGGUGCUGAGGACUUCCACUACCAUUGUAGAUCCCCUUUCACUAAAUAUAAGACAUGCUAGCUAGCCUGGCUCAGUGAGCUUGGAAUUCUCGGGUGCCAA,4.45
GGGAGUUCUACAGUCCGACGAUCGUACCUGCCCCAACAGCCCCCCAUCAUCUGAUUUUGGGUGUGACCCCUCGAGUGUGCAUGCCACCCUGGGGCUCUUCUCAGUCCUGGGCCCAAGUCCCUGAAGCCUAGCAUGGAAUUCUCGGGUGCCAA,9.27
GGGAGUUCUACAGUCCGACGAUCGGAGACUAUUGUCUCCUAAACCCAGGACUAGAGUUCCCUCGUACUGUCACUCCUUUGGUCAUUAAAUGCACUGGGCUUGCCCGCACUUUGGCCUUCCUAGAACACUGCUUUGGAAUUCUCGGGUGCCAA,0.333

# Study 2 — method: universal PBM; molecule type: double-stranded DNA, one strand shown; medium: in vitro; concentration: not given; reading: higher = stronger binding
# Target: Sal-like protein 4, full length isoform B (SALL4, Homo sapiens, UniProt Q9UJQ4-2, residues 1-616)
# Setting: 8-mer, flanks averaged, mean of replicates
Strand,E-score
ACAGGTGG,-0.205
GCAGCGAA,-0.155
GCGGAAGA,-0.095
CCTATCTC,-0.116
CTACCACC,-0.25
CATAGCTA,0.135
GAAGCAGA,-0.0302
TCTAGTAA,0.286
ATAGGGGC,-0.192
GGCAATCA,0.0139
ATTATCGA,0.174
ACAATGAC,0.00647
ACTCGACT,-0.0539
ACCTGGGA,-0.113
CATATTGG,0.247
CCAGCAGC,-0.28
TCAGCGCA,-0.138
TCTTGGCA,-0.0921
AGGGCTAA,-0.00376

# Study 3 — method: protein-binding microarray; molecule type: double-stranded DNA, one strand shown; medium: in vitro; concentration: not given; reading: higher = stronger binding
# Target: Cyclic AMP-responsive element-binding protein 1 (CREB1, Homo sapiens, UniProt P16220, residues 1-327, full length assumed)
# Sequence of UniProt P16220 (whole entry, looked up): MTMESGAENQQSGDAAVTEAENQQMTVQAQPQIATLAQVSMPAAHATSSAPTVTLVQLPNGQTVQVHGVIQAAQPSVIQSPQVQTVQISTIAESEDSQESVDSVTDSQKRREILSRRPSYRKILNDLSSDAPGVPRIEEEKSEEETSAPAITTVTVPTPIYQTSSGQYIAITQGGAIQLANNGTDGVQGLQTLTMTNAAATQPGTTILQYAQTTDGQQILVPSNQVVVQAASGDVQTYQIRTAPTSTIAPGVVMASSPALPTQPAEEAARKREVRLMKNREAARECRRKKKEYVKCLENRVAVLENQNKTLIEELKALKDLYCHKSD
# Setting: k-mer, scored over probes, only values ≥0.25
Strand,E-score
ATCATTA,0.312
AGTATGA,0.311
ATGTGAC,0.272
GACGAAA,0.267
AACGTAA,0.333
ATAAAAA,0.29
ATACGTA,0.413
TGACGCA,0.468
GTTATGA,0.293
ATGACGA,0.475
GTAATTA,0.375
CCTGACG,0.268
ACATCAC,0.306
CAAAACA,0.266
CATGACG,0.477
ACGTAGG,0.282
CTATGAC,0.352

# Study 4 — method: DHFR PCA, deep sequencing; medium: yeast; with: (+)-ABA 710 µM; baseline: wild-type fitted maximum; reading: higher = stronger binding
# Target: ABI1, truncated, D143A, DHFR fusion (Arabidopsis thaliana)
# Setting: methotrexate growth selection, single substitutions
# Parent: PYL1, truncated, DHFR fusion (Arabidopsis thaliana); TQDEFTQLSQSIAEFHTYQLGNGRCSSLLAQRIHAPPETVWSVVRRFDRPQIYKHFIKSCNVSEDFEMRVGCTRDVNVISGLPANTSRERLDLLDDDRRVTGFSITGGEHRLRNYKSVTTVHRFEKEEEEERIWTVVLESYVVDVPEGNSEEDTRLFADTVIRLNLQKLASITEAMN
Variant,relative binding score [%]
F47P,7.26
E38V,80.8
R88H,104
V76F,20.4
R113C,104
K54I,4.92
E130I,108
V137C,88.7
F124P,90.6
N61W,98.7
P36T,97.2
A170Y,39.3
E125P,110
I105E,39.6
R32E,96.1
K126S,108
D96W,55.3
V76M,84.5
Q31N,71.6

# Study 5 — target: CCND2, cyclin fold, Cln2 fusion (human); method: yeast growth competition, sequencing; medium: yeast; setting: weak parent motif; baseline: not given; reading: higher = stronger binding
# Parent: E2F3 docking peptide (human); PPAKRRLELGESG; partner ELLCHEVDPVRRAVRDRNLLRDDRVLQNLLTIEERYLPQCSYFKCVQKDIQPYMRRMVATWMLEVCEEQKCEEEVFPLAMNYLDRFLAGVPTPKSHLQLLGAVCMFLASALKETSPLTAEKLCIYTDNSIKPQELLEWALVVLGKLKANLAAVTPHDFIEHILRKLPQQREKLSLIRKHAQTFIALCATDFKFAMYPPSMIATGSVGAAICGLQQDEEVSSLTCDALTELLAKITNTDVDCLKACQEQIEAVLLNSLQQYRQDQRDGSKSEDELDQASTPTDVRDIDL
Variant,normalised enrichment score
PPAKKRLEFGESG [R5K L9F],0.634
PPAKRRLELGASG [E11A],0.362
PPAKRRLEAGESG [L9A],0.452
PPAKARAELGESG [R5A L7A],0.0978
PPAARRLELGESG [K4A],0.218
PPAKRRLELGESA [G13A],0.131
PPAKRRLEFGESG [L9F],1.12
PPAKRRLELGEAG [S12A],0.384
APAKRRLELGESG [P1A],0.22

# Study 6 — method: RNA Bind-n-Seq; molecule type: RNA; medium: in vitro; concentration: 1 µM; setting: whole 134-nt RNA, ends assumed; with: 150 mM KCl; baseline: input library; reading: higher = stronger binding
# Target: Ras GTPase-activating protein-binding protein 1, RRM domain (G3BP1, Homo sapiens, UniProt Q13283)
# Sequence of UniProt Q13283 (whole entry, looked up): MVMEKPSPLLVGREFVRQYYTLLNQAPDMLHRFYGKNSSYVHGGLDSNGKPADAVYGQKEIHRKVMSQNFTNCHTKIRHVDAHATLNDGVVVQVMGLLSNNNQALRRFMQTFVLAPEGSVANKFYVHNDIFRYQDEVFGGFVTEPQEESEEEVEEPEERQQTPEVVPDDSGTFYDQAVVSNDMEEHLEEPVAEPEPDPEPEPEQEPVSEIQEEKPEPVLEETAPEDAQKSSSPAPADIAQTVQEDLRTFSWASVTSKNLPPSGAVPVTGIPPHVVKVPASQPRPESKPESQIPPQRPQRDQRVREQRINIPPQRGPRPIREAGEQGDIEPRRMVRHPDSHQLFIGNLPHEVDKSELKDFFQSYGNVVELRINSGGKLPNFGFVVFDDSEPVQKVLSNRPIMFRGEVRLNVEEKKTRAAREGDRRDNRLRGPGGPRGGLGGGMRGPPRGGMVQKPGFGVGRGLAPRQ
Strand,log2 enrichment
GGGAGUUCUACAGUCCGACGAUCCCUGUGCUACACAUCGUAUGUACCGAAUCGGGGUUUUUUGGGUUUUUUGGGUUUUUUGGGGAAAGUAUUAUGUUACGCCGUUCGGAUCUGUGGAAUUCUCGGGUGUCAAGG,-0.216
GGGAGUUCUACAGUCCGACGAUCUAACUUUAGAGGAGGAUCUGAUGGGUAUGGCAGUGGACGUGGAUUUGGGGAUGGCUAUAAUGGGUAUGGAGGAGGACCUGGAGGUGGCAAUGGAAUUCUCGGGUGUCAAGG,-0.103
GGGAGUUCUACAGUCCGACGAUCUAACUUUAGCGGAGGAUCUGAUGGAUAUGGCAGUGGACGUGGAUUUGGGGAUGGCUAUAAUGGGUAUGGAGGAGGACCUGGAGGUGGCAAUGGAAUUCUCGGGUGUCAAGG,-0.852
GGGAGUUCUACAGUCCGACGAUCUUUGAAAAAGAAGAAAAAGAAAAAGAAGGGUAAGGCAUUAAAAAAGUCUUUAUAAAUUUUCUCCAAAAUAAAUGUUUGAUUUUAGCCCUAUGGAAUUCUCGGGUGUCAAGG,-0.18
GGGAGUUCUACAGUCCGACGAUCACCAUGCAGGUGGGCAUCUUUGGGAAGUGGGGCAAGGGGGGGAUAGGGAGGGGGGUACCACUUUGGGAACAGGUGGUCCCAGGUCGUUUCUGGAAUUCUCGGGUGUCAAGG,1.05
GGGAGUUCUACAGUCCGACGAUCCAAGUCCUGUGCUACACAUCGUAUGUACCGAAUCGGGUUUUUGGGUUUGGGAGGGAAAGUAUUAUGUUACGCCGUUCGGAUCUGCACUUCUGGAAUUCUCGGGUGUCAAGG,0.423
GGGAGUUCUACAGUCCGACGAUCUCAAGUCCUGUGCUACACAUCGUAUGUACCGAAUCGGUUUUGGUUUUGGUUUUGGAAAGUAUUAUGUUACGCCGUUCGGAUCUGCACUUCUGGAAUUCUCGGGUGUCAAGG,-0.249
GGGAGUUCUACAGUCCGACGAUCAGUCCUGUGCUACACAUCGUAUGUACCGAAUCGGGGUUUUUGGGGAGGGGAAAGGGGAAAGUAUUAUGUUACGCCGUUCGGAUCUGCACUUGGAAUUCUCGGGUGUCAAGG,1.09
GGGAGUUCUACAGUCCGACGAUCAGUCCUGUGCUACACAUCGUAUGUACCGAAUCGGGGAAAAAGGGAAAAAGGAAAAAGGAAAGUAUUAUGUUACGCCGUUCGGAUCUGCACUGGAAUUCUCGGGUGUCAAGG,-0.0555
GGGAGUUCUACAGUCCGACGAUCUAACUUUAGAGGAGGAUCUGAUGGAUAUGGCAGUGGACGUGGAUUUGGGGAUGGCUAUAAUGGGUAUGGAGGAGGCCCUGGAGGUGGCAAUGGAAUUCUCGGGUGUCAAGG,-0.332
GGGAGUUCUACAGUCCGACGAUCCACAGACAACACGCACCCACACAGACACAGAGGGAAGAAAUUGGGAUGGGGACAGGGUGCACAGCAGGGCGGGGUAGGACCCCAGCCCCUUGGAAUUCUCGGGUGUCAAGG,-0.151
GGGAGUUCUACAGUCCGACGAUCAGAAAGCCCAGGAGGAACCACCUGCCAAGCUGCUGGAUGACCUUUUCCGAAAGACCAAGGCAGCUCCCUGCAUCUAUUGGCUCCCACUGAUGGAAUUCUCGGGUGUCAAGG,-0.185
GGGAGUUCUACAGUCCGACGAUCACCAUGCAGGUGGGCAUCUUUGGGAAGUGGGGCAAGGGGGGGAUAGGGAGGGGGGUAACACUUUGGGAACAGGUGGUCCCAGGACGUUUCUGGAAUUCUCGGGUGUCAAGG,0.724
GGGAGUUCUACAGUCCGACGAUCGCAGGAAGUAUAAACAAAUGGAAAUGCUUCGGAUAGUGGCAGGGGUGGGGGUUGCUAAGGAAAGGGUGGGAUGGGAGUGGGUAAAGAGUUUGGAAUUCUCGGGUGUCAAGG,0.845

# Other studies, line by line
Molecule,target,assay,system,setting,scale,measurement,value
"PhoQ, residues 284 288 289 292 302 303 SSTMSV","PhoP, residues 12 14 15 18 19 VQGLL (Escherichia coli, UniProt P23836)","Sort-seq, refers to: YFP reporter",E. coli,"PhoQ-PhoP variant library, with: 10 µM Mg2+","baseline: high Mg2+ state, higher = stronger signaling",fold induction,4.09

# Excerpt of the above (study 2):
Strand,E-score
CATAGCTA,0.135
GAAGCAGA,-0.0302
TCTAGTAA,0.286
ATAGGGGC,-0.192
GGCAATCA,0.0139
ATTATCGA,0.174
